Experimental data gathered from unrelated publications.
Parts stem from different laboratories: compare values within a part only.
Sequence of UniProt P10721 (whole entry, unmodified, looked up): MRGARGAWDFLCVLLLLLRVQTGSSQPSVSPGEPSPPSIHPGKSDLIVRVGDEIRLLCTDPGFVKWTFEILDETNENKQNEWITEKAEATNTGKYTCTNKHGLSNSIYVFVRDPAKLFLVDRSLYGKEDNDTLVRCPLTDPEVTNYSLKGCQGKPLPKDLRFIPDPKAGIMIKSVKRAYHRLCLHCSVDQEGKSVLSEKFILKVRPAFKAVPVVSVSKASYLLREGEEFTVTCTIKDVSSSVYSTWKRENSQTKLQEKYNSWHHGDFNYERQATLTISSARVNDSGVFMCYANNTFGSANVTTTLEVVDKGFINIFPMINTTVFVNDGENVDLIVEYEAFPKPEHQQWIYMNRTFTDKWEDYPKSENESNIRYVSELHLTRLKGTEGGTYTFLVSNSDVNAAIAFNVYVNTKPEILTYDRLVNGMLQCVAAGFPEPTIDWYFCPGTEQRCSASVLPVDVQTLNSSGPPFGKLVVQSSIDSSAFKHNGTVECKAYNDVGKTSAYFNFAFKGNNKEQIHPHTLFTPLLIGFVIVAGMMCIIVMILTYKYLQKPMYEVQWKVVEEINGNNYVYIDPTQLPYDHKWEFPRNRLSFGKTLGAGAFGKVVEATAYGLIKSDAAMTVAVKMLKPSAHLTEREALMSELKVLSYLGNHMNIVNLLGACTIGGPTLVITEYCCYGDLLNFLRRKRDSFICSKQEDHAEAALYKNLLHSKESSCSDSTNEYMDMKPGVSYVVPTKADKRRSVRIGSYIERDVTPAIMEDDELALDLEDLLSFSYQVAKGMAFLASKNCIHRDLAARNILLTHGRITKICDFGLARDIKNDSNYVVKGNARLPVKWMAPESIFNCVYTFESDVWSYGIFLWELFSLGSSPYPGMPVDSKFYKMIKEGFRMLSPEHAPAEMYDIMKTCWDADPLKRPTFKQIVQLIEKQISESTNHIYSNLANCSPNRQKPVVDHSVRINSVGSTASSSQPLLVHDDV
Sequence of UniProt P00519 (whole entry, unmodified, looked up): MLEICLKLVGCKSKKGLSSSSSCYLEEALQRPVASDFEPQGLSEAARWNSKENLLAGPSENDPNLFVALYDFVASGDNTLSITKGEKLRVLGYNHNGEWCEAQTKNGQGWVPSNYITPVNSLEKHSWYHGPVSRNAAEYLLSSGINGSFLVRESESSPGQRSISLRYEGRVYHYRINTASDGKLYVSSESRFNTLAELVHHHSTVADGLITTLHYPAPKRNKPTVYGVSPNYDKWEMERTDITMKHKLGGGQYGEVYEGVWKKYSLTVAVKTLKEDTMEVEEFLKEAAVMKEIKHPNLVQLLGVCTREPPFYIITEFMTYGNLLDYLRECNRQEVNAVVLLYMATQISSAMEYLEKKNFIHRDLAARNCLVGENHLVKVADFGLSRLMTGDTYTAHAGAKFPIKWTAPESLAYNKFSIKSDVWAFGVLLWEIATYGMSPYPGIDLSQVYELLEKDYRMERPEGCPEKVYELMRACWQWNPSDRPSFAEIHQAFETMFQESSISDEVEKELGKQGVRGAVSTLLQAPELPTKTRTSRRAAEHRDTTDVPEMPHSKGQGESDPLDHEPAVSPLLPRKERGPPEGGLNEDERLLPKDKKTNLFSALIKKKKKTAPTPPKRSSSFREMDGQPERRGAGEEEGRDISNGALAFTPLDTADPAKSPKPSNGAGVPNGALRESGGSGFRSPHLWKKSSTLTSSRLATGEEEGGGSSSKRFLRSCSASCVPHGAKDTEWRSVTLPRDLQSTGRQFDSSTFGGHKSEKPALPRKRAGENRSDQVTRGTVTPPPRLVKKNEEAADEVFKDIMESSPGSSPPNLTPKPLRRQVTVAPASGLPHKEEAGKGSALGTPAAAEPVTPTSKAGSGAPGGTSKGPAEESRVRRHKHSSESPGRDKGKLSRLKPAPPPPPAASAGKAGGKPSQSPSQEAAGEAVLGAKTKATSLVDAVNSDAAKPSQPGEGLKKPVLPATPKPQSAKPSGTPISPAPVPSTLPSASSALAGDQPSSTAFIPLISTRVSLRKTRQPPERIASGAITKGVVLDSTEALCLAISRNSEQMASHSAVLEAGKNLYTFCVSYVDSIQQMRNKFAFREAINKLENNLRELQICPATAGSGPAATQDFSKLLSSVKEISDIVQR
Sequence of UniProt Q8N4C8 (whole entry, looked up): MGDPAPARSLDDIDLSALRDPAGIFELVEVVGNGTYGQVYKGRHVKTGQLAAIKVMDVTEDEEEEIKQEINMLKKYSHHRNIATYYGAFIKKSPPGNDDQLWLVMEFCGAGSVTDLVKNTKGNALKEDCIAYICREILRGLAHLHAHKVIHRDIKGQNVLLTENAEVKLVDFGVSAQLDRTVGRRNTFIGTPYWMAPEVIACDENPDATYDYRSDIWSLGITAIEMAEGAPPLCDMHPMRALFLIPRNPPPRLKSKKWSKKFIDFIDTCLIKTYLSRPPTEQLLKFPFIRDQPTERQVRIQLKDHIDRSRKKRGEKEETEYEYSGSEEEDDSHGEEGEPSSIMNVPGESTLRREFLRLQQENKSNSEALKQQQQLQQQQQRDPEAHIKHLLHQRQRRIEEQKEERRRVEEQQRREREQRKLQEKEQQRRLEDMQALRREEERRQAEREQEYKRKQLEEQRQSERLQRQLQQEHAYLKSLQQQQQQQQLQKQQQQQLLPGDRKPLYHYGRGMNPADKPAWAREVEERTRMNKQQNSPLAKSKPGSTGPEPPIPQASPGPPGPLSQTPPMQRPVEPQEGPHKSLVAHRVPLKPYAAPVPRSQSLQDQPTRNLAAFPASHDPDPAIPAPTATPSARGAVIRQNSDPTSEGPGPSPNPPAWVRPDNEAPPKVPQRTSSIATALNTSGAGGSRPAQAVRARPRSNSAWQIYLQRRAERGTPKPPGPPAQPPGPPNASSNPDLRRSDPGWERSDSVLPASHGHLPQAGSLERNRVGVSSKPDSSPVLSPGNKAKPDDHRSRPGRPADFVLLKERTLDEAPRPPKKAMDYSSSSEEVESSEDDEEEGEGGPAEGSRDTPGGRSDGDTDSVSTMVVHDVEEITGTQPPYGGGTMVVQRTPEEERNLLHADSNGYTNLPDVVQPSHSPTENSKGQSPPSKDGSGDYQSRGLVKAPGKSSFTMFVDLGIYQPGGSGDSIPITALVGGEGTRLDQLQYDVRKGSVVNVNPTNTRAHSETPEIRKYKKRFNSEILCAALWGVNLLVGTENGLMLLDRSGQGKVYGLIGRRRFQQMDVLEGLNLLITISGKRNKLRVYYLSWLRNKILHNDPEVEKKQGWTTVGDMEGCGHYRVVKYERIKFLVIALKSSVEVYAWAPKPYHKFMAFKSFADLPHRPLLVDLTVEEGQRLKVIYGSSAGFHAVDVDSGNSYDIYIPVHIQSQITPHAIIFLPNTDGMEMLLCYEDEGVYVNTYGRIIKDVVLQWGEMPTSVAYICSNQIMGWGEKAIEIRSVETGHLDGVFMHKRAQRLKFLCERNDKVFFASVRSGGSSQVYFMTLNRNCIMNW
Sequence of UniProt Q96L34 (whole entry, looked up): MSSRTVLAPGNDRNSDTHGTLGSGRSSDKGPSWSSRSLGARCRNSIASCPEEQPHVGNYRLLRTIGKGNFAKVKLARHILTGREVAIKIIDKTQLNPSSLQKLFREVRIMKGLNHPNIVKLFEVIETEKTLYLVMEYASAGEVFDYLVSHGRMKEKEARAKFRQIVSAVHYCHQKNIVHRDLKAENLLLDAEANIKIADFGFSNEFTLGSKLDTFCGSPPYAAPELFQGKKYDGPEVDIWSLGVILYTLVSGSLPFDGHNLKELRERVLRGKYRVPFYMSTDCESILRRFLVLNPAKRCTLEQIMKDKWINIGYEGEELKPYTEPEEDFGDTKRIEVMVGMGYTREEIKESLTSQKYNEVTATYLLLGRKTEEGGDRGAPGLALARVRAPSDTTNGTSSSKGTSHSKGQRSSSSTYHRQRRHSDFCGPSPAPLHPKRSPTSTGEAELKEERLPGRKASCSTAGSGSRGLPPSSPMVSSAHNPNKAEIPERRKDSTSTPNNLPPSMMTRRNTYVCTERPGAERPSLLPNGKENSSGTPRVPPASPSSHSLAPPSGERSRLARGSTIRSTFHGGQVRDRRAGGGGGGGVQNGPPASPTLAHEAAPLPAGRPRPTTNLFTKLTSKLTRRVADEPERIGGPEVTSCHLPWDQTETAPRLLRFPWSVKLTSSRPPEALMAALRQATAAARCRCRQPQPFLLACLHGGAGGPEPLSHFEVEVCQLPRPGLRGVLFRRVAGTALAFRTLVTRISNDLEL
Sequence of UniProt P51956 (whole entry, looked up): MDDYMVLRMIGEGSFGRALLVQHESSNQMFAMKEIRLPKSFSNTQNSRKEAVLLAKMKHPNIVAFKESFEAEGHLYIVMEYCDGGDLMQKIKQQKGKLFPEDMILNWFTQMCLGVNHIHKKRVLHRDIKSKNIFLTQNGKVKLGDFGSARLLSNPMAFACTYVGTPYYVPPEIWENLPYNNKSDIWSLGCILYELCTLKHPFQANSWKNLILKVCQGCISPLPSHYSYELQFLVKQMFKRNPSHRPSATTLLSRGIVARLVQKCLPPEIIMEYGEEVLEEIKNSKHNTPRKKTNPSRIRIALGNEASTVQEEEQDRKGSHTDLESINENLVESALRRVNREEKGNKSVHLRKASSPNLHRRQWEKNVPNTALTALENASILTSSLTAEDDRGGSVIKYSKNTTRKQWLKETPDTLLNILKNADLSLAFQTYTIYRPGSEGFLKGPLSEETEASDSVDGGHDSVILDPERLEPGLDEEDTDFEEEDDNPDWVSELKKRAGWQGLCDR
Sequence of UniProt Q16539 (whole entry, looked up): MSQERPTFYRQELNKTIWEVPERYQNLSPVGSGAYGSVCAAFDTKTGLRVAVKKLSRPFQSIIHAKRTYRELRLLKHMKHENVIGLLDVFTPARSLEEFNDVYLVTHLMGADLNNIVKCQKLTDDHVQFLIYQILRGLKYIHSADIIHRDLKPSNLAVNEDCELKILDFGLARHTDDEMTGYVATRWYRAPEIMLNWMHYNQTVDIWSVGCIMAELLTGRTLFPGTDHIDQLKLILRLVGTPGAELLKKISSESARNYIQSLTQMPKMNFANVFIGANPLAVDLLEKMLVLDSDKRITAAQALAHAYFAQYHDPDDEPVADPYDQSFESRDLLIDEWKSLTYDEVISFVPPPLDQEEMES

Series 1 — host: mouse; sample: microsomes or S9; concentration: 2 µM; time: 0.5 h; measurement: remaining compound
Cc1csc(-c2noc(Cc3csc(C(C)C)n3)n2)n1: 8.87%
Cc1ccnc(COc2cc(C)nc3onc(C)c23)n1: 7.21%
CCOc1cc(CNCCCN2CCOCC2)cc(Br)c1OCc1ccccc1Cl: 5.9%
CCc1ccc(/C=N/Nc2nn3cnnc3c3ccccc23)cc1: 16.1%
O=C(Cn1ncc2ccccc2c1=O)c1ccc(Cl)cc1: 1.93%
Cc1c(NC(=O)CCC(=O)N(c2ccccc2)c2ccccc2)c(=O)n(-c2ccccc2)n1C: 3.17%
O=C(Cn1ccc2ccccc21)NCCn1ncccc1=O: 75.3%
c1ccc2c(c1)OCC(c1csc(C3COc4ccccc4O3)n1)O2 (centres unmarked): 55.9%

Series 2 — organism: Plasmodium berghei; mode: inhibitor; cell line: Huh-7; strain: liver stage; concentration: 10 µM; time: 24 h; relative to: untreated control; measurement: infection rate
CCOC(=O)Nc1nc2ccccc2[nH]1: 64.2%
CC#C[C@]1(O)CC[C@H]2[C@@H]3CCC4=CC(=O)CCC4=C3[C@@H](c3ccc(N(C)C)cc3)C[C@@]21C: 86.4%
Cc1cn[nH]c1: 94%
CC(C(=O)O)c1ccc(N2Cc3ccccc3C2=O)cc1 (centres unmarked): 111%
Cc1cc(NC(=O)C2=C(O)c3ccccc3S(=O)(=O)N2C)no1: 94.8%
CC1Cc2ccccc2N1NC(=O)c1ccc(Cl)c(S(N)(=O)=O)c1 (centres unmarked): 112%
Cc1cc(=O)[nH]c(=S)[nH]1: 91.7%
Oc1ccc(O)cc1: 57.7%
NC(=O)OCC(COC(N)=O)c1ccccc1: 107%
CCOC(=O)[N-]c1c[n+](N2CCOCC2)no1: 92.5%
CS(=O)(=O)c1ccc([C@@H](O)[C@@H](CF)NC(=O)C(Cl)Cl)cc1: 91.8%
Clc1ccc(C(c2ccccc2Cl)C(Cl)Cl)cc1 (centres unmarked): 27.7%

Series 3 — technique: competition with immobilised ligand; concentration: 1 µM; measurement: remaining binding
Structure (SMILES): O=C(N1CCS(=O)(=O)CC1)N1C[C@H](c2ccc(OC(F)(F)F)cc2)C[C@H](c2nc(C3CC3)no2)C1
Mitogen-activated protein kinase 7 (MAPK7, Homo sapiens, UniProt Q13164); cell-free assay: 100%
Cyclin-G-associated kinase (GAK, Homo sapiens, UniProt O14976); cell-free assay: 100%
Discoidin domain-containing receptor 2 (DDR2, Homo sapiens, UniProt Q16832); cell-free assay: 100%
Mast/stem cell growth factor receptor Kit (KIT, Homo sapiens, UniProt P10721); cell-free assay: 100%
Tyrosine-protein kinase ABL2 (ABL2, Homo sapiens, UniProt P42684); cell-free assay: 100%
Ribosomal protein S6 kinase beta-1 (RPS6KB1, Homo sapiens, UniProt P23443); cell-free assay: 100%
Tyrosine-protein kinase ABL1, phosphorylated (ABL1, Homo sapiens, UniProt P00519, F317L); cell-free assay: 92%
Phosphatidylinositol 4,5-bisphosphate 3-kinase catalytic subunit alpha isoform (PIK3CA, Homo sapiens, UniProt P42336, I800L); cell-free assay: 68%
Tyrosine-protein kinase ABL1, non-phosphorylated (ABL1, Homo sapiens, UniProt P00519, F317I); binding: 80%
STE20/SPS1-related proline-alanine-rich protein kinase (STK39, Homo sapiens, UniProt Q9UEW8); cell-free assay: 100%
Serine/threonine-protein kinase Nek10 (NEK10, Homo sapiens, UniProt Q6ZWH5); cell-free assay: 81%
Activin receptor type-2A (ACVR2A, Homo sapiens, UniProt P27037); cell-free assay: 98%
Cyclin-dependent kinase 11B (CDK11B, Homo sapiens, UniProt P21127); cell-free assay: 100%
Mast/stem cell growth factor receptor Kit (KIT, Homo sapiens, UniProt P10721, T670I/V559D); cell-free assay: 100%
Serine/threonine-protein kinase TNNI3K (TNNI3K, Homo sapiens, UniProt Q59H18); cell-free assay: 100%
Cyclin-dependent kinase-like 1 (CDKL1, Homo sapiens, UniProt Q00532); binding: 100%

Series 4 — read-out: enzyme activity; mode: inhibitor; concentration: 0.5 µM; relative to: control; measurement: remaining activity
SMILES: Cc1cn(-c2cc(NC(=O)c3ccc(C)c(Nc4nccc(-c5cccnc5)n4)c3)cc(C(F)(F)F)c2)cn1
Ribosomal protein S6 kinase alpha-4 (RPS6KA4, Homo sapiens, UniProt O75676): 103%
Rho-associated protein kinase 1 (ROCK1, Homo sapiens, UniProt Q13464): 110%
Calcium/calmodulin-dependent protein kinase type IV (CAMK4, Homo sapiens, UniProt Q16566): 102%
Serine/threonine-protein kinase MRCK beta (CDC42BPB, Homo sapiens, UniProt Q9Y5S2): 99.6%
Mitogen-activated protein kinase 14 (MAPK14, Homo sapiens, UniProt Q16539): 23.3%
Serine/threonine-protein kinase Nek3 (NEK3, Homo sapiens, UniProt P51956): 95.9%
Serine/threonine-protein kinase tousled-like 2 (TLK2, Homo sapiens, UniProt Q86UE8): 87.8%
Cyclin-dependent kinase 1, with cyclin A (CDK1, Homo sapiens, UniProt P06493): 99.7%
Serine/threonine-protein kinase PAK 3 (PAK3, Homo sapiens, UniProt O75914): 108%
RAC-beta serine/threonine-protein kinase (AKT2, Homo sapiens, UniProt P31751): 103%
G protein-coupled receptor kinase 4 (GRK4, Homo sapiens, UniProt P32298): 89.2%
Dual specificity mitogen-activated protein kinase kinase 1 (MAP2K1, Homo sapiens, UniProt Q02750): 106%
Hepatocyte growth factor receptor (MET, Homo sapiens, UniProt P08581): 95.8%
Myosin-IIIb (MYO3B, Homo sapiens, UniProt Q8WXR4): 85%
Mitogen-activated protein kinase 1 (MAPK1, Homo sapiens, UniProt P28482): 100%
MAP/microtubule affinity-regulating kinase 4 (MARK4, Homo sapiens, UniProt Q96L34): 102%
Misshapen-like kinase 1 (MINK1, Homo sapiens, UniProt Q8N4C8): 113%

Excerpt of the above (series 2):
CC1Cc2ccccc2N1NC(=O)c1ccc(Cl)c(S(N)(=O)=O)c1 (centres unmarked): 112%
Cc1cc(=O)[nH]c(=S)[nH]1: 91.7%
Oc1ccc(O)cc1: 57.7%
